Measured values of several laboratories.
Numbered parts are unrelated; each lists some results of a single study.

Sample 1
Target: RNA binding protein fox-1 homolog 2, RRM domain, GST-SBP tag (RBFOX2, Homo sapiens, UniProt O43251-10, residues 100-194)
Method: RNA Bind-n-Seq
Form: RNA
Medium: in vitro
Tested at: 365 nM
Notes: natural RNA segment, single round, ends assumed
Baseline: no-protein control
Direction: higher = stronger binding
Target sequence (chain): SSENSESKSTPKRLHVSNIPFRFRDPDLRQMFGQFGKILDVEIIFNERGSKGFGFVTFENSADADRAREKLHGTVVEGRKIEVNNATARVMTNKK
For `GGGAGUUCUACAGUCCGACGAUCGUUGAAGUGGAAUCGUUUCAUCCCAGCCAUGGAGGCCACCAGCAGGAGUGUUCAUGGGGAUGUGGGCGAGGUGGGGCACUUUGAAGGAAUGGCGGUCUGCUGGUGCCCUCUGGAAUUCUCGGGUGCCAA`, “RBNS enrichment (R)” read 0.508.
Under “RBNS enrichment (R)”, `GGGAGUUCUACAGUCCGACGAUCAGUCUACAGUAAGAAUGCCUGCUUCCAAGACUCAGAUACAUAGGGACGUUUUUACCCGUUCCGUAGACUCUGUAACUGUCAGCCCAGUUUGCCUCUGCUGACUCCUGGCAUGGAAUUCUCGGGUGCCAA` is recorded as 0.383.
`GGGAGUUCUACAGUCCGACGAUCUUAAUCUCAUUUGGCUUCUGGUUUACAGAAGGUAAAGCUCCUAUUGGCUGUGAGCCGUUGGUGAAAUCCUUUCACAUCGACACCAAAAGCUCUCCCCAGCUAGUGAAAACUGGAAUUCUCGGGUGCCAA`: “RBNS enrichment (R)” 0.186.
For `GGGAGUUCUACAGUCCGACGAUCUUAAUUAAGUCCAAAAACAGCUGUCAGAACCUCGAGAGCAGAACAUGAGAAACUCAGAGCUCUGGACCGAAAGCAGAAAGUUUGCCGGGAAAAAAAAAGACAACAUUAUUUGGAAUUCUCGGGUGCCAA`, “RBNS enrichment (R)” read 0.689.
`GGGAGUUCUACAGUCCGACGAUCAUAUAUAUGACAUCUAUUUUGGAAAAUGUUUGCCCUGCUGUACCUCAUUUUUAGGAGGUGUGCAUGGAUGCAAUAUAUGAAAAUGGGACAUUCUGGAACUGCUGGUCAGGUGGAAUUCUCGGGUGCCAA`: “RBNS enrichment (R)” 1.2.
Under “RBNS enrichment (R)”, `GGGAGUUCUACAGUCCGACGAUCUUUGUUUGUUUGUUUUCCCCCCUCUCCUAGUUUUUACCUAGGUUUUCAGGACGCCUCGUGUUUUUGUUUUCUGCUGGAUCUGUGUGGUGGUGUUAGCGUCGUUUGCCUAGUGGAAUUCUCGGGUGCCAA` is recorded as 4.32.
`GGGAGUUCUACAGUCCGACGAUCCUGAAGCCUCUUCUCAGAACACUGUGAAGAUAAUACUGACAGUAGAAUCAGUGAAAACAGCCUAACAAAACCUCUGACAUCAGUAUAUCAACUUUUAACAGCCCACUCACUGGAAUUCUCGGGUGCCAA` — result for “RBNS enrichment (R)”: 0.439.
`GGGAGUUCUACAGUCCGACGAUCUUAAUCUACCUCUGUCUCUUUAACCACGCUGUCUCUGGACUGAGUGUCAGGAGGGAAGAGGGGAGUCUACGCUCACAACCCAGGCACUGGACAGCUGCAGCCUGGCUAGGUGGAAUUCUCGGGUGCCAA` — result for “RBNS enrichment (R)”: 0.231.
For `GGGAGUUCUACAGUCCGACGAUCAUUCAGGAGUGAGCCUCUGUGACCCUUGGGGUGCUCGCAGAAGGCCUCUCCAAGCAGUCAAGCCCUCUUGCAAAUUCAGCCACUGCUUUGAGCCCAAAACGGGAAUAUUAUGGAAUUCUCGGGUGCCAA`, “RBNS enrichment (R)” read 0.394.
For `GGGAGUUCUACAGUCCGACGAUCUAUGUGAAAGUCAUUUUACAUUUCAAAGCAGUGUGUGUUUCUUAUUUUUAUAUUUUUAACUCUUUAUUCUUGGAUGUAUAAAGUGAACUUUUUGGCUUCUGUAAGUAUGCUGGAAUUCUCGGGUGCCAA`, “RBNS enrichment (R)” read 0.49.
For `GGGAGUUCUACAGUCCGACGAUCUGCAUCUGAUAGUACACAGACUGAUGCACGUAGCAUUUCCCAAACUGUUUGGACCUCAGGACCUUUUCCCCUCUGGGACACUGCAUGCCGUGGAAAACCUUUUCAGAAACUGGAAUUCUCGGGUGCCAA`, “RBNS enrichment (R)” read 6.31.
Under “RBNS enrichment (R)”, `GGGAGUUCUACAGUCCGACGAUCCCCUGCACUCCGCCUUAGUCCUGGGGCCGGCGACACAGUGGGGGCUCCUCACUUGCUGCAGUGUCAUAGCAAUAAAAUGUGAUUCUUGGGGUCCCCCCAGGGAGCUGCCCUGGAAUUCUCGGGUGCCAA` is recorded as 0.422.

Sample 2
Target: Interferon regulatory factor 5, full length, phosphomimetic (IRF5, Homo sapiens, UniProt Q13568-2, residues 1-514, K96S/S451D/S453D/S456D/S462D)
Method: protein-binding microarray
Form: double-stranded DNA, one strand shown
Medium: in vitro
Tested at: 250 nM
Notes: 60-bp whole probe
Added: salmon DNA 0.4 mg/ml
Baseline: random background probes
Direction: higher = stronger binding
Constant ends, left off below: GCCTAGCAC … GTCTTGATTCGCTTGACGCTGCTG
The log fluorescence of `GACGGTTTCGGACTGGTGACGTGCTAG` is reported as 3.95 z-score.
For `TCAATGTTCCTTATTTAACTGTGCTAG`, the log fluorescence was 0.642 z-score.
The log fluorescence of `TTAGGTCTCGTTTTCGGTTAGTGCTAG` is reported as 7.33 z-score.
With `GACGGACTGCCTCTCCTGACGTGCTAG` the log fluorescence was -0.674 z-score.
The log fluorescence of `TTAGGACTCGACTATCGGTTAGTGCTA` is reported as 6.52 z-score.
`TCACAGCTATTTTTAGGACTGTGCTAG` gave a log fluorescence of 0.0022 z-score.
`TTCGGTATCGACTTTCGGTTAGTGCTA` has a log fluorescence of 10.3 z-score.
`TCATGTTTCCTCTTTCTACTGTGCTAG` has a log fluorescence of 1.86 z-score.
`TTAGGACTGCTTATCCGTTAGTGCTAG` gave a log fluorescence of -0.0253 z-score.
For `TTAGAAATCAGACTGGATTAGTGCTAG`, the log fluorescence was 0.0276 z-score.
For `TTAGAGTTCAGTATCGATTAGTGCTAG`, the log fluorescence was 7.23 z-score.
The log fluorescence of `TGTGCTTTCCTGATGACCCTGTGCTAG` is reported as 0.214 z-score.
The log fluorescence of `CAGGTTCTCTTTTATTTTTTGTGCTAG` is reported as 0.714 z-score.
With `TTAGAACTGCTTATCCTTTAGTGCTAG` the log fluorescence was 0.15 z-score.
The log fluorescence of `GACGGCTTCCTTTCCCTGACGTGCTAG` is reported as 0.167 z-score.
`CTAGATTTCAGTTTCGATTAGTGCTAG` has a log fluorescence of 10.7 z-score.
`GACGATCTCAGACTGGAGCCGTGCTAG` has a log fluorescence of -0.297 z-score.
`AACGGTTCCGGTTTCGGGACGTGCTAG` has a log fluorescence of 5.1 z-score.
`TTAGGTTCGCTTTTCCTTTAGTGCTAG` gave a log fluorescence of 0.777 z-score.
For `TTAGGACTGGGGCCTGGGTTAGTGCTA`, the log fluorescence was -0.343 z-score.
With `CACTCTCTACATGTGTTTACGTGCTAG` the log fluorescence was 0.453 z-score.
`GACGGTATCCTTTTCTTGACGTGCTAG` has a log fluorescence of 0.463 z-score.

Sample 3
Target: Sal-like protein 4, full length isoform B (SALL4, Homo sapiens, UniProt Q9UJQ4-2, residues 1-616)
Method: universal PBM
Form: double-stranded DNA, one strand shown
Medium: in vitro
Tested at: not given
Notes: 8-mer, flanks averaged, mean of replicates
Direction: higher = stronger binding
For `TCCTGGAA`, the E-score was -0.21.
For `AGTTACGG`, the E-score was -0.00418.
For `AATCTTGA`, the E-score was 0.156.
The E-score of `CAGTCACA` is reported as 0.0112.
The E-score of `CAATCGGC` is reported as -0.157.
With `CGACTCCA` the E-score was -0.265.
The E-score of `TACTCACA` is reported as 0.0879.
For `ACGAACCT`, the E-score was -0.0467.
With `GTGAATGA` the E-score was 0.0652.
`GTGTTGGA` gave an E-score of -0.0673.
For `CGCCGTAC`, the E-score was -0.127.
With `CATTTGTA` the E-score was 0.285.
`CGTAATTC` gave an E-score of -0.00572.
The E-score of `AGTTCCAG` is reported as -0.287.
For `AGCCTCTA`, the E-score was -0.189.
For `CGTGGGCA`, the E-score was -0.228.

Sample 4
Target: RING finger protein unkempt homolog, zinc fingers 1-6, GST-SBP tag (UNK, Homo sapiens, UniProt Q9C0B0, residues 30-357)
UniProt Q9C0B0, sequence (30-357, looked up): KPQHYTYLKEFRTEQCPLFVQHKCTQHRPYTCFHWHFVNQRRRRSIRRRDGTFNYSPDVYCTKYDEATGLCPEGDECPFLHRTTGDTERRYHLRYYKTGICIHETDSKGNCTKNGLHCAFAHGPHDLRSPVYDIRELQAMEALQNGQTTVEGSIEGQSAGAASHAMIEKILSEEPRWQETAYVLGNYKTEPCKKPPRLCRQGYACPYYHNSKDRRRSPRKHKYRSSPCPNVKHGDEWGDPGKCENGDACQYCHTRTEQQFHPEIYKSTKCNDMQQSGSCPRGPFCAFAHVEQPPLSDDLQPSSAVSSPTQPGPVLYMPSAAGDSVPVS
Method: RNA Bind-n-Seq
Form: RNA
Medium: in vitro
Tested at: not given
Notes: RNA with constant flanks, human-mouse chimeric sites, ends assumed
Baseline: input RNA pool
Direction: higher = stronger binding
`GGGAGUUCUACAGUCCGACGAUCAAAGAGUGGAUAGAGUGUGCACACGGGAUCGGUGGGACCCGGGCGAAAAAGGAGUGCAAGAUAGAAUUCGAUGACUUCGUAGAGUGUUUGCUUCGGUACAAAACGAUGAGGCGAAUGCAUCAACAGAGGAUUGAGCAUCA` has a bound/input enrichment of 0.364 ratio.
The bound/input enrichment of `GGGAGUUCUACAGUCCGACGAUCAAAGAACUACUGAGGCAAGGCAGCAAAUUUAGAAGAAAUGUAUCAACAAUAUUGAUAGAGUUAGGAUUCCAAAUUAAAAAGAAAACUAAGACAUUAUACAUCAACAAAGCCAAUGUGUGGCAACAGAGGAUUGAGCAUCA` is reported as 10.3 ratio.
`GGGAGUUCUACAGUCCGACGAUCCUGUGACCACAAGAUCCUACCUGAGUGUUCAGAUGGGUUGACUCCCUCUCCUUGCCUGCCUAGUUUCCCACUGCCCCCCCAUCCCCCAGUGUCGGCUGAGAUGUUGCCUCUGCACGGUUCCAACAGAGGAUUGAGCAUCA` gave a bound/input enrichment of 1.31 ratio.
`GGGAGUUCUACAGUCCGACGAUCGCUGAAAAUGAAGAAGAGGCAGCUGAUGUCUGGUACAACUUGGGACACAUAGCUGUGGGAAUCGGAGAUACAAAUUUGGCCCACCAAUGCUUCAGGCUGGCCCUGGUCCACAACAACCACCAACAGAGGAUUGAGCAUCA` has a bound/input enrichment of 0.166 ratio.
With `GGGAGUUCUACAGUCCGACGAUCUGACAAGGGCACUGCAGAGCCAUGCCUUUCCUUGACAUACAGAAAAAGCUGGGCAUCAGCCUGGACCGGCACUUUAUAAUCCAGAGUGCAGAACAGCCCUAUAAGAAGGCUGGUCGAUGCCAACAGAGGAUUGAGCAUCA` the bound/input enrichment was 0.114 ratio.
With `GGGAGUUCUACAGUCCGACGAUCCUGGGCUUCUCUUUUCUUUCUUUCCUUUAGGAAAAGCAGAUUAGACUGGUUGUAAGAAAAACAGAAGCCAUGUUUCGAAGACCUGUGUUACAGGUAUUUCGUCAGUUUGUAAGACAUGAGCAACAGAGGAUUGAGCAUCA` the bound/input enrichment was 0.297 ratio.
The bound/input enrichment of `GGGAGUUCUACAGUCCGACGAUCUACUCAACUUUCUUGCCACGUUUUGAAUUCCAAGACAUUAUUCCUCCAGAUGACUUCCUAACGAGUGAUGAAGAGCAAGAUUUGGUUUUAUUUGGAACUAUGAGAGGACAAGUUGUUGGACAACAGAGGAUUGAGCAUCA` is reported as 0.183 ratio.
With `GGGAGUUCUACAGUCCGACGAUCUCAUUUUGCUCGGGUUAUUCUUUCCUUUAGGAAAAGCCUAAAGAUUAGGUUGUAAGAAAAACAGAAGCCAUGUUUCGAAGACCUGUGUUACAGGUAUUUCGUCAGUUUGUAAGACAUGAGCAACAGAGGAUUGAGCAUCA` the bound/input enrichment was 0.612 ratio.
`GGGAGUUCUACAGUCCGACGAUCCGCUGGCCCAAGCUGAUGGACUCUGAUGGCCUCCAUCUCUCAGGCACGUUUGCCUUCUCUUAGUCCCUGUUUUCGGGAUGUUAUGAAUCUCAGUACUGUUUGACAGAAGCACCAGCUUUGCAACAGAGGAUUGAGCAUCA` gave a bound/input enrichment of 0.171 ratio.
`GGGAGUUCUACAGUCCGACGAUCGGCCUGGGACCGUCCUGGGCUAGUACAAAUAGCGGCAGUGGAGGCUCAGAGGAAAGUUUGUUAGUGGGAGGCAGUGGUAGAGGCCGUCAUGUACGGUCCUUUACUCGAUAGAUGUGUUCUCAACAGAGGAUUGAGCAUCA` gave a bound/input enrichment of 0.581 ratio.
`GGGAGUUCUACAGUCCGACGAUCGGCCUGGACCUUCCUGGGGCUAGUACAAAUAGCGGCAGUGGAGGCUCGAGAGGAAAGUUUGUUAGUGGAGGCAGUGGUAGAGGCCGUCAUGUACGGUCCUUUACUCGUAAAAAUCCUUCUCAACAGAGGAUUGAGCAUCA` gave a bound/input enrichment of 0.203 ratio.

Some of these lines once more (sample 2):
With `CACTCTCTACATGTGTTTACGTGCTAG` the log fluorescence was 0.453 z-score.
For `TCAATGTTCCTTATTTAACTGTGCTAG`, the log fluorescence was 0.642 z-score.
The log fluorescence of `TTAGGTCTCGTTTTCGGTTAGTGCTAG` is reported as 7.33 z-score.
`AACGGTTCCGGTTTCGGGACGTGCTAG` has a log fluorescence of 5.1 z-score.
The log fluorescence of `GACGGCTTCCTTTCCCTGACGTGCTAG` is reported as 0.167 z-score.
The log fluorescence of `CAGGTTCTCTTTTATTTTTTGTGCTAG` is reported as 0.714 z-score.
